# Published values pooled from the literature.
# Each line is one published result; not all experiments were run side by side. “And” joins repeats or separate records; there may be more than shown. ± gives the spread as reported.
# Genome polyprotein NS3 helicase domain: Genome polyprotein, NS3 helicase domain (Hepatitis C virus genotype 1b, UniProt Q9WMX2)
# WD repeat-containing protein 91 WD40 domain, residues 392–747: WD repeat-containing protein 91, WD40 domain, residues 392–747 (Homo sapiens, UniProt A4D1P6)
# Sequence of UniProt A4D1P6 (whole entry, looked up): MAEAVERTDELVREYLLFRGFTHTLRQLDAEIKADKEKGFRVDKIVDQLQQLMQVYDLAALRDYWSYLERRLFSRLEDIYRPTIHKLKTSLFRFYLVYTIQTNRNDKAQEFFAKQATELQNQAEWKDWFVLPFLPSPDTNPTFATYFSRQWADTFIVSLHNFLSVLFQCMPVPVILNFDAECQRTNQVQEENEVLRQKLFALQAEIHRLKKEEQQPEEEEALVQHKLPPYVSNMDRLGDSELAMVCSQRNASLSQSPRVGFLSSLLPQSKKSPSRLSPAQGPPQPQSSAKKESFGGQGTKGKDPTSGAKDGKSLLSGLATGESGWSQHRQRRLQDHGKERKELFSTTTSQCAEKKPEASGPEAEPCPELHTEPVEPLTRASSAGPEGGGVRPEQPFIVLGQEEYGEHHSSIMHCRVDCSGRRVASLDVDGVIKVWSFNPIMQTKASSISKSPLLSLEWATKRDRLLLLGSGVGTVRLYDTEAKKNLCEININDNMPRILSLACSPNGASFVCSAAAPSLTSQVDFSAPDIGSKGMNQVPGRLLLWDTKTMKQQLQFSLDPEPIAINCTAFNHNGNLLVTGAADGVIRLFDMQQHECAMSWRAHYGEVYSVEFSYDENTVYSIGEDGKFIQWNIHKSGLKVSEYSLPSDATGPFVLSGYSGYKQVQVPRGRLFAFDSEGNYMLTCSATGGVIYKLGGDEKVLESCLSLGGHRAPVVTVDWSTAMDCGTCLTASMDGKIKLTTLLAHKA
# ESR1: Estrogen receptor (ESR1, Homo sapiens, UniProt P03372)
# Sequence of UniProt P03372 (whole entry, looked up): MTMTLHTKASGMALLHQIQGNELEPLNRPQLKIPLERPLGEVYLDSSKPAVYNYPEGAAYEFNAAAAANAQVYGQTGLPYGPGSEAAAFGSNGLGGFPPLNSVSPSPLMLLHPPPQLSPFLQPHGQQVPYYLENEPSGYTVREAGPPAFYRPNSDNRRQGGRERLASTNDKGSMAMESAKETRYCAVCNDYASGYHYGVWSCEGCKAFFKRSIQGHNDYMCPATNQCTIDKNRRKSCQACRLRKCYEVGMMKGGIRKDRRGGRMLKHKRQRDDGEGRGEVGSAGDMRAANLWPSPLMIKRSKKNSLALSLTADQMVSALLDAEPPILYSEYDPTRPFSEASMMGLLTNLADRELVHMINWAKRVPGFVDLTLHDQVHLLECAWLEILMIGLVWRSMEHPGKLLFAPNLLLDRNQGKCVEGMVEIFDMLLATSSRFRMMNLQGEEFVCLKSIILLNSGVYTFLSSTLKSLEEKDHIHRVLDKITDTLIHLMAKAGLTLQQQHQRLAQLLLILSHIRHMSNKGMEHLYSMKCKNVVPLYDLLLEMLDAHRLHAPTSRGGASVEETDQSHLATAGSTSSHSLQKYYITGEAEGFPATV
# Sequence of UniProt Q64663 (whole entry, unmodified, looked up): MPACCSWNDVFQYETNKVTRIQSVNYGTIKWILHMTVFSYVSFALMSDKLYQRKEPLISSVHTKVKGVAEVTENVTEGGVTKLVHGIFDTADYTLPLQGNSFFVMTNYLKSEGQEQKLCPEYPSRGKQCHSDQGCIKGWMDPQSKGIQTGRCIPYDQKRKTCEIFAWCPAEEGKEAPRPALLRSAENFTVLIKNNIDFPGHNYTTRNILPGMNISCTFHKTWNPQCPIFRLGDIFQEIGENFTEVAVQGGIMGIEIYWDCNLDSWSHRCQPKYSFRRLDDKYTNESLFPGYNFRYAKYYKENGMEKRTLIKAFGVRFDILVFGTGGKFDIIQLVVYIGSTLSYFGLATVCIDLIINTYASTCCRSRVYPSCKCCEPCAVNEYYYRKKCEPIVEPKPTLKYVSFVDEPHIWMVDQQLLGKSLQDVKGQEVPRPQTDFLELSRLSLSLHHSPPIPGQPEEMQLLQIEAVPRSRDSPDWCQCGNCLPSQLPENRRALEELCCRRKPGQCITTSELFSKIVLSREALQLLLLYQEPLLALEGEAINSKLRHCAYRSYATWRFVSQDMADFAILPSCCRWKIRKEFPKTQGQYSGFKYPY
# Sequence of UniProt P02754 (whole entry, looked up): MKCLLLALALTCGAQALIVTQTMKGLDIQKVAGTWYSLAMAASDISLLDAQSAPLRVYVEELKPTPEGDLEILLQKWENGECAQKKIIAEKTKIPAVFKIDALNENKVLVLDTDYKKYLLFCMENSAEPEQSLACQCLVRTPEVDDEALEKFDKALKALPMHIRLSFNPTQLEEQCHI
SMILES,target,test,test system,setting,how to read,quantity,result
O=C(COP(=O)(O)O)[C@@H](O)[C@H](O)[C@H](O)COP(=O)(O)O,"Germinal-center associated nuclear protein, 80 kDa isoform (MCM3AP, Homo sapiens, UniProt O60318)","thermal proteome profiling, measured: MCM3AP",HepG2 cell lysate,"concentration not given, 57 over 37 °C, mean",reference: compound over control,thermal stability ratio,3.79
N=C(N)N/N=C/c1c(Cl)cccc1Cl,Genome polyprotein NS3 helicase domain,"DNA binding, inhibitor",hepatitis C virus,"100 µM, with: Cy5-dT15 DNA",,inhibition,0%
N#CC1CCN(C(=O)c2ccc(CNS(=O)(=O)c3ccccc3)cc2)CC1,"WD repeat-containing protein 91 WD40 domain, residues 392–747","binding, SPR single-concentration screen",,45 µM,,SPR response,-8.2 RU and -0.7 RU
CCCc1cc(=O)oc2cc(OCc3cc(=O)c(O)co3)ccc12,"PPO3 (Agaricus bisporus, UniProt C7FF04)","secondary structure of tyrosinase, CD spectroscopy",,molar ratio 1:1,,α-Helix content,33.7%
CC1(C)CC2(C)OC(=O)NC2(C)c2ccccc21 (centres unmarked),"Transducin-like enhancer protein 4 (TLE4, Homo sapiens, UniProt Q04727)","binding, affinity selection mass spectrometry",,,reference: other proteins in batch,fold enrichment,1.31
CC[C@H](C)[C@H](NC(=O)[C@H](CCCCN)NC(=O)CNC(=O)[C@@H](NC(=O)[C@@H](NC(=O)[C@H](CCSC)NC(=O)[C@H](Cc1c[nH]cn1)NC(=O)CN)[C@@H](C)O)C(C)C)C(=O)N[C@@H](Cc1ccc(O)cc1)C(=O)N[C@@H](C)C(=O)N[C@@H](C)C(=O)N[C@@H](CCSC)C(=O)N[C@@H](CCSC)C(=O)N[C@H](C(=O)N[C@@H](CCSC)C(=O)N[C@@H](CCC(=O)O)C(=O)N[C@@H](Cc1ccc(O)cc1)C(=O)N[C@@H](Cc1ccc(O)cc1)C(=O)N[C@@H](CCCNC(=N)N)C(=O)N[C@@H](CCC(N)=O)C(=O)N[C@@H](CO)C(=O)N[C@@H](CCCCN)C(=O)N[C@@H](C)C(=O)N[C@@H](CCCCN)C(=O)N[C@@H](CCCCN)C(=O)N[C@@H](CC(C)C)C(=O)N[C@@H](CCC(N)=O)C(=O)N[C@@H](C)C(=O)N[C@@H](CCSC)C(=O)N[C@@H](CCCNC(=N)N)C(=O)O)[C@@H](C)CC,"Calmodulin-1, Ca2+-bound C-lobe (CALM1, Homo sapiens, UniProt P0DP23)","binding, isothermal titration calorimetry",,"pH 7.4, 15 °C, Ca2+-bound C-lobe, with: CaV2.1 IQ peptide",,stoichiometry,0.92 ± 0.1
O=C1CC[C@H](N2Cc3c(ccc4c3OCC43CCN(C[C@@H]4CCC5(CCN(c6ccc([C@@H]7c8ccc(O)cc8CC[C@@H]7c7ccccc7)cc6)CC5)OC4)CC3)C2=O)C(=O)N1,ESR1,,"mouse, MCF7 xenograft","oral, 10 mg/kg daily for 3 days, 6 h",reference: vehicle,ER level reduction,66 to 69%
COc1cc(/C=C/C(=O)C(=Cc2cccc(O)c2)C(=O)/C=C/c2ccc(O)c(OC)c2)ccc1O,haemin,"binding, isothermal titration calorimetry",,"pH 7.4, 37 °C",,ΔS,-212 ± 7.56 J/(mol·K)
N#Cc1ccc(Nc2cccc(C(=O)NC3CCc4cc(F)ccc43)c2)cc1 (centres unmarked),"WD repeat-containing protein 91 WD40 domain, residues 392–747",SPR,,45 µM,,binding,71% and 93%
CC[C@H](C)[C@H](NC(=O)[C@H](CCSC)NC(=O)[C@H](CCSC)NC(=O)[C@H](C)NC(=O)[C@H](C)NC(=O)[C@H](Cc1ccc(O)cc1)NC(=O)[C@H](C)NC(=O)[C@H](CCCCN)NC(=O)CNC(=O)[C@@H](NC(=O)[C@@H](NC(=O)[C@H](CCSC)NC(=O)[C@H](Cc1c[nH]cn1)NC(=O)CN)[C@@H](C)O)C(C)C)C(=O)N[C@@H](CCSC)C(=O)N[C@@H](CCC(=O)O)C(=O)N[C@@H](Cc1ccc(O)cc1)C(=O)N[C@@H](Cc1ccc(O)cc1)C(=O)N[C@@H](CCCNC(=N)N)C(=O)N[C@@H](CCC(N)=O)C(=O)N[C@@H](CO)C(=O)N[C@@H](CCCCN)C(=O)N[C@@H](C)C(=O)N[C@@H](CCCCN)C(=O)N[C@@H](CCCCN)C(=O)N[C@@H](CC(C)C)C(=O)N[C@@H](CCC(N)=O)C(=O)N[C@@H](C)C(=O)N[C@@H](CCSC)C(=O)N[C@@H](CCCNC(=N)N)C(=O)O,"Calmodulin-1, Ca2+-bound N-lobe (CALM1, Homo sapiens, UniProt P0DP23)","binding, isothermal titration calorimetry",,"N-lobe, CaV2.1 IQ domain, unit not given, with: Ca2+",reference: wild-type IQ domain,ΔΔG,1.18
COCCc1ccc(OCC(O)CNC(C)C)cc1.O=C(O)C(O)C(O)C(=O)O (racemic),Genome polyprotein NS3 helicase domain,"DNA binding, inhibitor",hepatitis C virus,"100 µM, with: Cy5-dT15 DNA",,inhibition,1%
Cn1c(=O)c2[nH]cnc2n(C)c1=O,"Glutamate receptor 2 (Homo sapiens, UniProt P42262)","ion current, agonist, SyncroPatch patch clamp",HEK293,10 µM,,activation,2%
CC(C)OCCn1c(=S)[nH]c(=O)c2[nH]ccc21,"Myeloperoxidase (MPO, Homo sapiens, UniProt P05164)","H2O2 consumption, inhibitor, H2O2 electrode",,"0.226 µM, 0.3 s",,H2O2 concentration,-0.595 µM
CC[C@@H](C)[C@@H](NC(=O)[C@@H](Cc1ccc(O)cc1)NC(=O)[C@H]1CCCN1C(=O)[C@@H](CCCNC(=N)N)NC(=O)[C@H](N)Cc1c[nH]cn1)C(=O)N[C@H](C)C(=O)N[C@H](Cc1c[nH]cn1)C(=O)N[C@H](CCCNC(=N)N)C(=O)N[C@@H](C(=O)N[C@H](Cc1ccc(O)cc1)C(=O)N[C@H](CO)C(=O)N[C@H](Cc1ccccc1)C(N)=O)C(C)C,"Transferrin receptor protein 1 (Tfrc, Mus musculus, UniProt Q62351)",flow cytometry,MC-38,"6 h, unit not given",reference: 0 h,surface expression,1 and 1.04
O=C(O)c1ccc(Nc2ncc3c(n2)-c2ccc(Cl)cc2C(c2c(F)cccc2F)=NC3)cc1,EphB1(h),kinase activity,,1 µM,,remaining activity,35%
OC[C@H]1OC(O)[C@H](O)[C@@H](O)[C@@H]1O (some centres unmarked),"Interferon regulatory factor 6 (IRF6, Homo sapiens, UniProt O14896, P104G)",microscale thermophoresis,,concentration not given,reference: wild type,binding affinity decrease,8 fold
CCn1c(=O)[nH]c2cc(C(=O)NC(c3ccc(F)cc3)c3cnn(C)c3)ccc2c1=O (centres unmarked),"WD repeat-containing protein 91 (Homo sapiens, UniProt A4D1P6)","binding, SPR steady state",,7.5 µM,,SPR response,27.2 RU
N#Cc1cccc2c1CC[C@H]2NC(=O)c1ccc(OCc2nc3ccccc3s2)cc1,"WD repeat-containing protein 91 WD40 domain, residues 392–747",SPR,,45 µM,,binding,-19% and -38%
O=C1Nc2ccccc2/C1=C1/Nc2ccccc2/C1=N\O,Genome polyprotein NS3 helicase domain,"DNA binding, inhibitor",hepatitis C virus,"100 µM, with: Cy5-dT15 DNA",,inhibition,0%
Nc1ncnc2c1ncn2[C@@H]1O[C@H](COP(=O)(O)OP(=O)(O)OP(=O)(O)O)[C@@H](O)[C@H]1O,"P2X purinoceptor 7 (P2rx7, Rattus norvegicus, UniProt Q64663, Q143A/R125A)","ion current, agonist, two-electrode voltage clamp",Xenopus laevis oocytes,6 µM,reference: highest concentration response,normalized current,0.00201 and 0 and 0.00984
Cc1[nH]c(C)c(S(=O)(=O)Nc2ccc(C(F)(F)F)c(Cl)c2)c1C(=O)N1CCC(F)(F)C1,"D(3) dopamine receptor (DRD3, Homo sapiens, UniProt P35462)",binding,membranes,"100 µM, with: [3H]dopamine",,Bmax increase,19%
C=CC(=O)N1CCC(COCC(=O)N2CCN(c3nc(-c4cnc(N)nc4C(F)F)nc(N4CCOC[C@@H]4C)n3)CC2)CC1,"Tyrosine-protein kinase ABL1, phosphorylated (ABL1, Homo sapiens, UniProt P00519)",KINOMEscan,,1 µM,,remaining binding,97%
CN1CCCCC1Cc1cn(Cc2ccc(C(=O)N3CCC(C#N)CC3)cc2)nn1 (centres unmarked),"WD repeat-containing protein 91 WD40 domain, residues 392–747",SPR,,45 µM,,binding,-20% and -6%
O=c1ccn([C@@H]2O[C@H](COP(=O)(O)OP(=O)(O)O)[C@@H](O)[C@H]2O)c(=O)[nH]1,"Histo-blood group ABO system transferase (ABO, Homo sapiens, UniProt P16442, G235S/G268A/L266M/R176G)",ZZ-exchange NMR,,"compound-bound to free complex, with: H-disaccharide",,exchange rate constant,2.5 ± 0.6 s⁻¹
C[S+](CC[C@H](N)C(=O)[O-])C[C@H]1O[C@@H](n2cnc3c(N)ncnc32)[C@H](O)[C@@H]1O (some centres unmarked),"Histone-lysine N-methyltransferase 2C (KMT2C, Homo sapiens, UniProt Q8NEZ4)","substrate, enzyme-coupled methylation",,with: H3 peptide 100 µM,,apparent Km,10.1 ± 0.4 µM
Oc1ccc(/C=C/c2cc(O)cc(O)c2)cc1,"O-methyltransferase (Sorghum bicolor, UniProt A0A1B6PFV1)",,,"concentration not given, with: ADN+",,ΔH of binding,-14.4 ± 0.161 kcal/mol
CCOC(=O)CCCN,"N-alpha-acetyltransferase 80 (NAA80, Homo sapiens, UniProt Q93015)","substrate, DTNB",,"2 mM, 30 min, 37 °C, with: acetyl-CoA 500 µM",,product formation,0.66 µM
C=CC(=O)N1CCN(C(=O)c2ccco2)CC1,"14-3-3 protein sigma, with ERα phosphopeptide (SFN, Homo sapiens, UniProt P31947)","binding, fluorescence polarization",,"covalent ligand screen, with: phosphorylated ERalpha peptide",reference: control,FP signal,95.2%
Cc1cc(N)c2ccccc2[n+]1CCCCCCCCCC[n+]1c(C)cc(N)c2ccccc21.[Cl-].[Cl-],Genome polyprotein NS3 helicase domain,"DNA binding, inhibitor",hepatitis C virus,"100 µM, with: Cy5-dT15 DNA",,inhibition,2%
Nc1ncnc2c1ncn2[C@@H]1O[C@H](COP(=O)(O)OP(=O)(O)NP(=O)(O)O)[C@@H](O)[C@H]1O,"Cell cycle histidine kinase CckA, CA domain (Caulobacter vibrioides, UniProt Q9X688)",isothermal titration calorimetry,Caulobacter crescentus,"concentration not given, 12 °C, with: without c-di-GMP",,binding enthalpy (ΔH),-1.9 kcal/mol
O=C(/C=C/c1ccc(O)cc1)c1ccccc1,ESR1,array formation,PRL-HeLa,,reference: EC50 ERβ over EC50 ERα,selectivity ratio,8.54
COC(=O)CCc1ccc(C(=O)N/N=C/C(Br)=C/c2ccccc2)cc1,"Histone deacetylase 3 (HDAC3, Homo sapiens, UniProt O15379)","inhibitor, fluorogenic",,5 and 10 µM,reference: SAHA,enzyme activity,no effect
CCNC(=O)[C@H]1O[C@@H](n2cnc3c(N)nc(NCCc4ccc(CCC(=O)O)cc4)nc32)[C@H](O)[C@@H]1O.Cl,Genome polyprotein NS3 helicase domain,"DNA binding, inhibitor",hepatitis C virus,"100 µM, with: Cy5-dT15 DNA",,inhibition,0%
O=c1nc(SCc2ccc(C(F)(F)F)cc2)nc(SCc2csc3ccc(Cl)cc23)[nH]1,"DNA topoisomerase 2-alpha (TOP2A, Homo sapiens, UniProt P11388)",DNA relaxation,,"15.6 µM, replicate 1",,relaxed DNA,0%
COCCOCc1ccc(-c2cc3onc(-c4ccccc4)c3c(=O)n2C)cc1,"Nuclear receptor subfamily 4 group A member 3, ligand-binding domain (Homo sapiens, UniProt Q92570)","reporter gene, Gal4 hybrid reporter",,3 µM,reference: vehicle,activation,1.21 fold
N#Cc1cccc(OCc2cn(-c3ccc(C(=O)N4CCC(C#N)CC4)cc3)nn2)c1,"WD repeat-containing protein 91 WD40 domain, residues 392–747","binding, SPR single-concentration screen",,45 µM,,SPR response,9.5 RU and 15.1 RU
COc1ccc(-c2coc3cc(O)ccc3c2=O)cc1,ESR1,array formation,PRL-HeLa,,reference: EC50 ERβ over EC50 ERα,selectivity ratio,0.527
Nc1cc(=O)[nH]c(N)n1,Genome polyprotein NS3 helicase domain,"DNA binding, inhibitor",hepatitis C virus,"100 µM, with: Cy5-dT15 DNA",,inhibition,1%
CCCCC[S+]([O-])c1n[nH]c(N)n1 (centres unmarked),"SPRY domain-containing SOCS box protein 2, SPRY domain (Homo sapiens, UniProt Q99619)","binding, affinity selection mass spectrometry",,,reference: other proteins in batch,log fold enrichment,-0.0585
CC1=C(/C=C/C(C)=C/C=C/C(C)=C/C=C/C=C(C)/C=C/C=C(C)/C=C/C2=C(C)CCCC2(C)C)C(C)(C)CCC1,"Beta-lactoglobulin (LGB, Bos taurus, UniProt P02754)",isothermal titration calorimetry,,concentration not given,,binding stoichiometry,1
Nc1ncnc2c1ncn2[C@@H]1O[C@H](COP(=O)(O)CP(=O)(O)OP(=O)(O)O)[C@@H](O)[C@H]1O,"P2X purinoceptor 1 (P2RX1, Homo sapiens, UniProt P51575, K136W)",calcium influx,,316 nM,reference: ionomycin response,calcium influx,71.3% and 86.5% and 85%
